Measurements collected from several papers.
Each numbered part is a random draw from the data of one study; scales do not carry over between parts. Positions count from the first letter of the parent shown.
Sequence of UniProt Q9C0C9 (whole entry, looked up): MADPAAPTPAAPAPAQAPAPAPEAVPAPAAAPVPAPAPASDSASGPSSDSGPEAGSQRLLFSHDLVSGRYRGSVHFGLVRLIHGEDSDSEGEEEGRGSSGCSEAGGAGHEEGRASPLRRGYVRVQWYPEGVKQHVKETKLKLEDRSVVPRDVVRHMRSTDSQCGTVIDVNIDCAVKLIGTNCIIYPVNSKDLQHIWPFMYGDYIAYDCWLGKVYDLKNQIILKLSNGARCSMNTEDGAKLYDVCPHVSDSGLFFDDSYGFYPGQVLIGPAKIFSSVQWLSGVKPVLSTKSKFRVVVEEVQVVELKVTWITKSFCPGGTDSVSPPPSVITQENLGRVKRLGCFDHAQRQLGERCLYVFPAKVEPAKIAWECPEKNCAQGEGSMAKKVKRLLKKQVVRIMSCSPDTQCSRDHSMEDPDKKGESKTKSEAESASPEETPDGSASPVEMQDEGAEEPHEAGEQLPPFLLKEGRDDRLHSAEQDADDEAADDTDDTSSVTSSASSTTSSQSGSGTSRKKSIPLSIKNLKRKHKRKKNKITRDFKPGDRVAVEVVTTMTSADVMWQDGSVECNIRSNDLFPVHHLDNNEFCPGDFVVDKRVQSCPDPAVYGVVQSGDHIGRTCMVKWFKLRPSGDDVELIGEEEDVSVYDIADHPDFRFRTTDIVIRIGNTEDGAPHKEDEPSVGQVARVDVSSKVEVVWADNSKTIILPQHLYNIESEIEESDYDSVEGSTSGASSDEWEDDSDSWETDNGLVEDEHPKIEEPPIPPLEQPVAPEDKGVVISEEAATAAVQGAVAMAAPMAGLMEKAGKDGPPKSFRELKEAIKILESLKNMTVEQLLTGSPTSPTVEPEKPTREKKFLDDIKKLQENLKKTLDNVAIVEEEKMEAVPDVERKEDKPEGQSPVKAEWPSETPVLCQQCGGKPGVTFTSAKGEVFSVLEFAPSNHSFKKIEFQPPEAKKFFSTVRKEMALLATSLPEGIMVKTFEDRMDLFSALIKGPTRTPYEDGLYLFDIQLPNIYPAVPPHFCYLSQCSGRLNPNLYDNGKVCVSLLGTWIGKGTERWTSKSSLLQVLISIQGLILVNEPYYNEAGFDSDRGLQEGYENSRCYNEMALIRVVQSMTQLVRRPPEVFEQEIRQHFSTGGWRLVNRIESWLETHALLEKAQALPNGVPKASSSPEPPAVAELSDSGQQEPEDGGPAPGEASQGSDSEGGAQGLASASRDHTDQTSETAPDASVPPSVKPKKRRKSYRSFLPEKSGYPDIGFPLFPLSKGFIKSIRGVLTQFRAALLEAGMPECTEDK
Sequence of UniProt P63146 (whole entry, looked up): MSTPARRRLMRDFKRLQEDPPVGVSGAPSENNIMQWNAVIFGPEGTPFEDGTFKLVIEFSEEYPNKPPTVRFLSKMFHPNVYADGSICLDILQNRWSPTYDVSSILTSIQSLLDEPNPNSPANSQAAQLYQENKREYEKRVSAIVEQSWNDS
Sequence of UniProt P62253 (whole entry, looked up): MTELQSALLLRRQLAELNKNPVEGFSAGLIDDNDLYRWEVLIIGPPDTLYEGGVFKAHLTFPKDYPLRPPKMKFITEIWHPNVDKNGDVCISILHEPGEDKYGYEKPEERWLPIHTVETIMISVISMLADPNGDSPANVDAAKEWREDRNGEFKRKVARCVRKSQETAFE
Sequence of UniProt Q9H832 (whole entry, looked up): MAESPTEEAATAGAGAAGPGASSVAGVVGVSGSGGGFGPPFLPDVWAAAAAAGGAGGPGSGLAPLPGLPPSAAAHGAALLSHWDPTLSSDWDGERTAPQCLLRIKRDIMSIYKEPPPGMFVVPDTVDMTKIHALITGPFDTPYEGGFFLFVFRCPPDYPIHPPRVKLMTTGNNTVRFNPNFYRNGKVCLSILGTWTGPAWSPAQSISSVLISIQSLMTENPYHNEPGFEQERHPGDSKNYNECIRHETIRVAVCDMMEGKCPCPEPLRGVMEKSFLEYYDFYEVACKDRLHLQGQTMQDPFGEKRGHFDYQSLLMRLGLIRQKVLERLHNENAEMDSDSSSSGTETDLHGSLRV
Sequence of UniProt Q9NPD8 (whole entry, looked up): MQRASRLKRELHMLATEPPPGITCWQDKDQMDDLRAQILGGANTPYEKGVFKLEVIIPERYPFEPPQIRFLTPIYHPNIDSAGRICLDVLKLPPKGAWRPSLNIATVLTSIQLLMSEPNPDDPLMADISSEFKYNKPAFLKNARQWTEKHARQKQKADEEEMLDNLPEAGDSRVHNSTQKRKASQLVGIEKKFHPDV
Sequence of UniProt Q969T4 (whole entry, looked up): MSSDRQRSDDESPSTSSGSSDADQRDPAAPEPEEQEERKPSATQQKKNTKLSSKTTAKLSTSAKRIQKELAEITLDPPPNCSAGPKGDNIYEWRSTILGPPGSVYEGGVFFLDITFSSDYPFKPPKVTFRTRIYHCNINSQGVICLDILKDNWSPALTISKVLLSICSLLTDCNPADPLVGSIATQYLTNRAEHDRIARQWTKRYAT
Sequence of UniProt P51668 (whole entry, looked up): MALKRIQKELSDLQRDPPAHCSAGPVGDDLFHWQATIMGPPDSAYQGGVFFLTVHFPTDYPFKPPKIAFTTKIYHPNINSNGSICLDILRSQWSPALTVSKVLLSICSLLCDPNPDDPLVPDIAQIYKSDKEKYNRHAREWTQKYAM

Study 1 — method: RNA Bind-n-Seq; form: RNA; matrix: in vitro; concentration: 200 nM; notes: whole 134-nt RNA, ends assumed; with: 150 mM LiCl; reference: input library; reading: higher = stronger binding; quantity: log2 enrichment; all molecules: 7-deaza-guanosine replaces G
Target: Ras GTPase-activating protein-binding protein 1, full length (G3BP1, Homo sapiens, UniProt Q13283)
Sequence of UniProt Q13283 (whole entry, looked up): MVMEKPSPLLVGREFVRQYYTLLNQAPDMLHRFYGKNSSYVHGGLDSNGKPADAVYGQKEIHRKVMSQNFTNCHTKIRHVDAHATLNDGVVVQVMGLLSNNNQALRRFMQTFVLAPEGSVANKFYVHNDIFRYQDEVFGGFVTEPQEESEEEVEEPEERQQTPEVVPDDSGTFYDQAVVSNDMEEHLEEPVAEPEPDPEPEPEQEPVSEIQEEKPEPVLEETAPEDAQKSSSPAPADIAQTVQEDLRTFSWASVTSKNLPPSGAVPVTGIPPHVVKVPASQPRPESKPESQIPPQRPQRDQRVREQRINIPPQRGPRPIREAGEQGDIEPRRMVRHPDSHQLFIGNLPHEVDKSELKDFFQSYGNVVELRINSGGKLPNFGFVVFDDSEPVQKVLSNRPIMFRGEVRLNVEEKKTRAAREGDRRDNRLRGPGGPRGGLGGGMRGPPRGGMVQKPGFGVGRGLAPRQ
Shared flanks, not repeated: GGGAGUUCUACAGUCCGACGAUC … UGGAAUUCUCGGGUGUCAAGG
UUCACCAGUUUCACUGUGAGCCUCAACGAGCUGGAGACAGGCAUGGAGAAGACCCUGCCACCCACGGACUGCCGCCUGCGCCCUGACAUC: 1.55
UUUGAAAAAGAAGAAAAAGAAAAAGAAGGGUAAGGCAUUAAAAAAGUCUUUAUAAAUUUUCUCCAAAAUAAAUGUUUGAUUUUAGCCCUA: -2.89
AGUCCUGUGCUACACAUCGUAUGUACCGAAUCGGAAAAAAAGGUUUUUGGUUUUUGGAAAGUAUUAUGUUACGCCGUUCGGAUCUGCACU: -2.74
UAACUUUAGAGGAGGAUCUGAUGAAUAUGGCAGUGGACGUGGAUUUGGGGAUGGCUAUAAUGGGUAUGGAGGAGGACCUGGAGGUGGCAA: -0.352
UCCCUGAGACGGCGGGCAACAGCAUCGGCAGGAACGCCAUGGCCGUCCCCUCCCAGCUCUUACCUUACCAUCGACCUCACAGACGACACA: 1.21
UCCUGUGCUACACAUCGUAUGUACCGAAUCGGGGUUUGGGGUUUUUGGGGUUUUUGGGGAAAGUAUUAUGUUACGCCGUUCGGAUCUGCA: 0.0467
CACAGACAACACGCGCCCACACAGACACAGAGGGAAGGGGUUGGGAUGGGGACAGGGUGCACAGCAGGGCGGGGUAGGACCCCAGCCCCU: 0.306
CACAGACAACACGCACCCACACAGACACAGAGGGAAGGGGUUGGGAUGGGGACAGGGUGCACAGCAGGGCGGGGAAGGACCCCAGCCCCU: 1.09
CUGUGCUACACAUCGUAUGUACCGAAUCGGGCCCCCCCGGGCCCCCCCGGGGCCCCCCCGGGAAAGUAUUAUGUUACGCCGUUCGGAUCU: -0.548
UGGCCCUGGUGGCAUGCGGGGAGGAAGAGGUGGCCUCAUGGAUCGUGGUGGUCCCGGUGGAAUUUUCAGAGGUGGCCGUGGUGGAGACAG: 0.379
UAACUUUAGAGGAGGAUCUGAUGGAUAUGGCAGUGGACGUGGAUUUGGGCAUGGCUAUAAUGGGUAUGGAGGAGGACCUGGAGGUGGCAA: -0.592

Study 2 — target: CCND2, cyclin fold, Cln2 fusion (human); method: yeast growth competition, sequencing; matrix: yeast; notes: weak parent motif; reference: not given; reading: higher = stronger binding; quantity: normalised enrichment score
Starting sequence: MASTL docking peptide (human); PMIAKNLMCELDE; partner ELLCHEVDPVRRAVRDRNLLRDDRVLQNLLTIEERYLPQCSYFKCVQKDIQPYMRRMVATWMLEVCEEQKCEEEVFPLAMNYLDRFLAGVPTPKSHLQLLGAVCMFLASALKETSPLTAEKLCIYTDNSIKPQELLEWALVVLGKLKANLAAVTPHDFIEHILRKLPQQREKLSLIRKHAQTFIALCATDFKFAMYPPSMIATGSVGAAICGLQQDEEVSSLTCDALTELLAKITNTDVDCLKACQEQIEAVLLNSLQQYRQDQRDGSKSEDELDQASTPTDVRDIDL
PMIAKNDMCELDE [L7D]: -0.0689
PNIAKNLMCELDE [M2N]: -0.104
PHIAKNLMCELDE [M2H]: 0.0615
PMIAMNLMCELDE [K5M]: 0.226
PMIVKNLMCELDE [A4V]: 0.104
PMIAKNEMCELDE [L7E]: 0.454
PMIAKNLMCELVE [D12V]: 0.0455
PMIAKNLMCEADE [L11A]: 0.0374
PMIAKNLMYELDE [C9Y]: -0.329
PMIAKNLFCELDE [M8F]: -0.0518
PGIAKNLMCELDE [M2G]: 0.0415
PMIAFNLMCELDE [K5F]: -0.0221
PMIAKNLMGELDE [C9G]: -0.0148

Study 3 — Molecule: B1 (TRIM24 RING domain); method: yeast two-hybrid; matrix: yeast; notes: mostly zero background; reference: not given; reading: higher = stronger interaction; quantity: lacZ reporter activity
B1: TRIM24 RING domain (UniProt O15164); chain EAARLNLLDTCAVCHQNIQSRAPKLLPCLHSFCQRCLPAPQRYLMLPAPMLGSAETPPPVPAPGSPVSGSSPFATQVGVIRCPVCSQECAERHII
UBE2B UBC core domain (UniProt P63146): 0
UBE2E3 UBC core domain (UniProt Q969T4): 0
UBE2G1 UBC core domain (UniProt P62253): 0
UBE2T UBC core domain (UniProt Q9NPD8): 0
UBE2Z UBC core domain (UniProt Q9H832): 0
UBE2O UBC core domain (UniProt Q9C0C9): 0
UBE2D1 UBC core domain (UniProt P51668): 0

Study 4 — method: protein binding microarray; form: double-stranded DNA, one strand shown; matrix: in vitro; concentration: not given; reference: not given; reading: higher = stronger binding; quantity: E-score
Target: Histone acetyltransferase KAT6A, winged helix 2, GST fusion (KAT6A, Homo sapiens, UniProt Q92794, residues 85-181)
Notes: 8-mer, flanks averaged, mean of 2 arrays, mostly near background
Construct (chain): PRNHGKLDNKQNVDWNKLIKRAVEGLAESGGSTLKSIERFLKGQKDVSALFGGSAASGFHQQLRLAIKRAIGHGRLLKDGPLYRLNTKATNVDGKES
CGTGGCGC: -0.037
CTGCGCAC: 0.16
AATAGAGA: -0.0232
CAGTTATG: -0.056
GTATGTTA: -0.0787
AGTTCGTA: -0.0507
GACATGAC: -0.112
CTACAAAG: -0.0164
CTGCGTAC: 0.0928
ATCTCAAT: -0.0797
CACATACA: -0.25
AACCTCTT: 0.0918
CCGGACCC: 0.167
CCCTTAGA: -0.07
CTTGTAAA: -0.0182
ACAATGAT: -0.19
CACTCGGC: 0.187
CGAACCAA: 0.0559
ATCTGTGA: -0.0324
AATTCTCA: -0.017
CTCCCAAG: 0.0777
ACGGGGCC: -0.0773
CCTGATCA: 0.0121
CAATATGA: 0.0174

Study 5 — method: RNA Bind-n-Seq; form: RNA; matrix: in vitro; concentration: 365 nM; reference: no-protein control; reading: higher = stronger binding; quantity: RBNS enrichment (R)
Target: RNA binding protein fox-1 homolog 2, RRM domain, GST-SBP tag (RBFOX2, Homo sapiens, UniProt O43251-10, residues 100-194)
Notes: natural RNA segment, single round, ends assumed
Shared flanks, not repeated: GGGAGUUCUACAGUCCGACGAUC … UGGAAUUCUCGGGUGCCAA
Target sequence (chain): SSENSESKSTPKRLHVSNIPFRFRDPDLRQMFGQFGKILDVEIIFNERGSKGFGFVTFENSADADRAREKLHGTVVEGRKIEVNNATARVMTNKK
AAUUGCAUUCAUGGCUUCCACUUGUAAAUAUGCUAAGGGUAUUUUAAUAAAUCUUGGUUUCAUGUCCAUCUGGUGUGUGGUGGAGAUUUUUGUUUCAGUGGCCACUUGCU: 0.787
GUAGACAUAAAGACUUGAUUGCUUUCCAGUUUAAUGAAAGCUUAAAUGUCCCUGCGAACCCACAAUCUCUGCCAGCAGAACUGGUUUUGUUCUGAAUAGUACAGAUUGAU: 0.288
UUAUUGGGCCACAGGAGGGUCAAUCUUGUGGGUCUGUGCUGUAAUCUGCCUUACUUGCACCCACCAGGAUAAGGACAUAAACGGUGCUCAACUUUUCUGCCACCAGACUG: 0.388
CUACAGCAUCAUUGCAUAAUUCUUGAUGGUAAUAAAUUUGAAUAAUCAGAUUUCUUACAAACCAGGACUCUGUCUCAGCUGUUUCUGGAACCAAAGAGUCUGGGCCAAAU: 0.813
ACAUUUAGUGGUUUCCAAAAUAUAUUAGUAUAUUGUUGAACAUACAUUAUGCCUUAGAAAUGCACAUUCUGUAUUUUGUGGGAUGAUAAUCUAAUUCAGUAUAGAAUAUG: 0.239
GCAUCCAGUAUGGUGGUGUAAUGGAAGUGUACUACUAGCACUACUACAUCAGGUCAGCACAGAUUAACUCAGUUACGUGUUAUACCUUCAAGACGCUAGACAUUCCAGAA: 0.363
UCUCUCUCUGUGCACUCGUGAUCCAUGUUGAACAAUACAUGUAGGUUCUUUUUCCACGCAAUGUAAGAACAUGAUAUACUGUACGUUGGAAAGCAUUUACCUUAUUUAUA: 0.387
AUCCUGUGAACUGAGAGCGAGGAGCAGUGUAGGAAAUUGCAAUGUGUGGUUCAUGCAUUGUCUUUGAUAUCCUAGACGGAGCUCAGCUUAGAACUUUCCAAGCGCCAGUG: 0.22
UGCCUUCCCUAGUAGUAGGGACUGACAGAAUACACUUAACACAAACCUCAAGCUUUACUGACUUCAAUUAUCUGUUUUUAAAGACGUAGAAGAUUUAUUUAAUUUGAUAU: 0.323
CACUAAUCAUGAACACGUUUUUGCCAGUUUCAAUCAAGUCAGAGGCAUUUAAUAAAAUUAUCUACACCUUCGGAGUCUUGAGUUUUUGUUCGGGUUUGCCCUCACAGAGC: 0.648
GUACUGGUCCAAUUUAUUUAGGAAGUAUCUCUUGGAGUUUCAGAAAUGCUAGCUUGGACAACUGAAAAGUCACAUCACAGCUGGCAUUCUGGGGGCUACCAAAACACCCC: 0.215
AAUGUAAUAUUAAAAUUCCAAGUAGGGGUAGCCACAGGUGAGAACAAAGGCCUUCAUGGGAAGCUUGCACGAGCAUCUCAAGGUGGCUGGGCAUAGCAGAGUUCAACGAG: 1.79

For quick reference, copied from above (study 4):
CTGCGCAC: 0.16
AATAGAGA: -0.0232
CAGTTATG: -0.056
GTATGTTA: -0.0787
AGTTCGTA: -0.0507
GACATGAC: -0.112
CTACAAAG: -0.0164
CTGCGTAC: 0.0928
